Experimental data collected from several papers.
Lines come from different studies, so protocols differ. Numbers after ± are the reported error.
YWHAG/RELA phospho-Ser45 p65 peptide: YWHAG/RELA, phospho-Ser45 p65 peptide (Homo sapiens, UniProt P61981+Q04206)
Chain of UniProt Q04206 (whole entry, looked up): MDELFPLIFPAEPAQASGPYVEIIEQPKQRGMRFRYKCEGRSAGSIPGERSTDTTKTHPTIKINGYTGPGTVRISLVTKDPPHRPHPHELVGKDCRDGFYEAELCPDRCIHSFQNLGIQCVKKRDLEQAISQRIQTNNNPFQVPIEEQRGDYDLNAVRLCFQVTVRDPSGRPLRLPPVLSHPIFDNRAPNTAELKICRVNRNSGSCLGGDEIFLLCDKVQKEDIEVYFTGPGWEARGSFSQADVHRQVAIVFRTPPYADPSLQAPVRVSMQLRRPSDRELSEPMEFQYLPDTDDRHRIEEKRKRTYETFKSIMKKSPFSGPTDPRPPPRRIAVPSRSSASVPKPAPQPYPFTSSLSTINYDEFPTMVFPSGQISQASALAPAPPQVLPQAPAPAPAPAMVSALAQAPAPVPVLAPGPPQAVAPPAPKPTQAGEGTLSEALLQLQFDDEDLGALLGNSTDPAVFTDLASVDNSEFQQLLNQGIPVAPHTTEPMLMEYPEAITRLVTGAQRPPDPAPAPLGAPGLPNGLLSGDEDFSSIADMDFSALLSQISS
Chain of UniProt P61981 (whole entry, looked up): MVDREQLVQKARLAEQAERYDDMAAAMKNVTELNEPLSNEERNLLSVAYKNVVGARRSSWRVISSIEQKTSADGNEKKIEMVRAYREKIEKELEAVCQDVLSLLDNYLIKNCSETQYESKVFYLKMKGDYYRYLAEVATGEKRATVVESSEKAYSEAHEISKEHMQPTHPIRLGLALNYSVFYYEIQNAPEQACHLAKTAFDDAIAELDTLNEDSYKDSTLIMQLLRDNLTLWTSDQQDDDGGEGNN

| Compound | target or system | assay | system | setting | how to read | quantity | value |
| --- | --- | --- | --- | --- | --- | --- | --- |
| CC(C)(C(=O)N1CCOc2c(C#N)cncc2C1)C(F)F | – | measured: Dizziness | human | oral, 40 mg, CSF pharmacokinetic cohort | – | subjects with adverse event | 16.7% |
| COC1CCN(C(=O)c2ccc(C=O)cc2)CC1 | YWHAG/RELA phospho-Ser45 p65 peptide | ternary complex formation, stabilizer, fluorescence anisotropy | – | – | – | EC50 | > 1000 µM |
| NC1(C(=O)N[C@@H](CCO)c2ccc(Cl)cc2)CCN(c2nc[nH]c3nccc2-3)CC1 | – | – | metastatic CRPC patients | 400 mg b.i.d., any grade, treatment-related, together with: enzalutamide 160 mg daily | – | incidence of SIRS | 0% |
| Cc1ccc(O)c(O)c1 | – | – | human plasma | median | – | plasma concentration | 4620 nM |
| CCn1cc(C(=O)O)c(=O)c2ccc(C)nc21 | – | starch gel membrane permeability | Gram-negative envelope surrogate | 200 µM, 60 min, pH 7.4 | – | amount permeated | 4.37 nmol |
| CCn1cc(C)c2c([C@H](N)c3ccc(C(F)(F)F)nc3)n(C)nc2c1=O | – | – | rat Sprague-Dawley male, plasma | intravenous, 1 mg/kg | – | CL | 11.8 ± 1.95 mL/min/kg |
| CN(C)[C@@H]1C(O)=C(C(N)=O)C(=O)[C@@]2(O)C(O)=C3C(=O)c4c(O)cccc4[C@@](C)(O)[C@H]3C[C@@H]12 | – | starch gel membrane permeability | Gram-negative envelope surrogate | 200 µM, 30 min, pH 7.4 | – | amount permeated | 1.78 nmol |
| Cn1cc(Nc2nc(N)nc(-c3cccc(-n4ccc5cc(C6CC6)cc(F)c5c4=O)c3CO)n2)cn1 | – | – | healthy humans, fed | oral tablet, 50 mg twice daily (multiple dose), 14 (unit not given) | baseline: subjects | drug-related vomiting incidence | 0% |
| O=C1c2ccncc2C(=O)c2c1[nH]c1ccccc21 | – | – | Sprague-Dawley rat, male, plasma | oral, 5 mg/kg | baseline: intravenous AUC(0-t) | oral bioavailability | 21.1% |
| CCO[C@H]1CCN(Cc2c(OC)cc(C)c3[nH]ccc23)[C@H](c2ccc(C(=O)O)cc2)C1 | – | – | PNH patients, active haemolysis | oral, 100 mg, 8 weeks, treatment | – | incidence of dyspepsia | 0% |
| O=C(CCCN1C(=O)c2cccc3cccc(c23)C1=O)NO | OCI-Ly1 | – | – | 0.5 µM, 120 h | – | viability | 100% |
| O=C1CC[C@H](Cc2ccc(OS(=O)(=O)O)c(O)c2)O1 | – | – | human plasma | median | – | plasma concentration | 1080 nM |
| CCN1/C(=C/C(C)=O)Sc2ccc(F)cc21 | – | – | cynomolgus monkey | oral, 100 mg/kg, 4 h post-dose | baseline: pre-dose | mean blood pressure change | 102 ± 2.8% |
| Cc1ccc([C@@H]2O[C@H](CO)[C@@H](O)[C@H](O)[C@H]2O)cc1Cc1ccc(-c2ccc(F)cc2)s1 | – | measured: inorganic phosphorus | Japanese type 2 diabetes patients | 200 mg, day 17, 24 h urine collection | baseline: baseline | urinary phosphate excretion change | 49.9 mg |
| O=C(O)/C=C/c1ccc(O)cc1 | – | – | human plasma | mean | – | plasma concentration | 114 nM |
| N#C[C@@]1(c2ccc3c(N)ncnn23)O[C@H](CO)[C@@H](O)[C@H]1O | – | – | beagle dog, male | oral, 6.5 mg/kg, capsule | – | apparent volume of distribution | 1.27 L/kg |
| CN1CCCN(c2cc(C=O)ccc2[N+](=O)[O-])CC1 | YWHAG/RELA phospho-Ser45 p65 peptide | ternary complex formation, stabilizer, fluorescence anisotropy | – | – | – | EC50 | > 1000 µM |
| CCc1nc(C(N)=O)c(Nc2ccc(N3CCC(N4CCN(C)CC4)CC3)c(OC)c2)nc1NC1CCOCC1 | – | – | Japanese patients, plasma | oral, 80 mg, cycle 1 day 28, multiple doses, mean | baseline: single dose | accumulation ratio (AUC) | 5.97 |
| Cc1cc(Nc2cc3ncccc3c(N[C@@H]3C[C@H]4CC[C@@H](C3)N4CCC#N)n2)n[nH]1 | – | – | healthy human subjects | oral, 100 mg, 2 weeks, single ascending dose | – | sneezing incidence | 0% |
| Clc1ccc(N/N=C(\c2ccccc2)c2ccccn2)nc1 | OCI-Ly1 | – | – | 0.1 µM, 120 h | – | viability | 0.82% |
| CCCCC[C@H](O)CC[C@@H]1[C@H]2Cc3cccc(OCC(=O)O)c3C[C@H]2C[C@H]1O | – | LC-MS/MS | Japanese PAH patients under 56.7 kg, plasma | inhaled, 54 µg | – | geometric mean Cmax | 1.09 ng/mL |
| CC(C)(C)c1ccc(O)c(CN(Cc2cc(C(C)(C)C)ccc2O)C2CCC(NC(N)=O)CC2)c1 (centres unmarked) | – | – | C57BL/6 mouse, male, brain | oral, 10 mg/kg | – | elimination rate constant | 2.61e-05 s⁻¹ |
| Cn1cc([C@H]2C[C@H]3CSC(N)=N[C@@]3(c3ccc(F)cc3F)CO2)cn1 | – | – | 129/SVE mouse male | subcutaneous, 3 mg/kg, 3 h | – | CSF concentration | 16 nM |

For quick reference, copied from above:
| Compound | target or system | assay | system | setting | how to read | quantity | value |
| --- | --- | --- | --- | --- | --- | --- | --- |
| Clc1ccc(N/N=C(\c2ccccc2)c2ccccn2)nc1 | OCI-Ly1 | – | – | 0.1 µM, 120 h | – | viability | 0.82% |
